Results pooled from the literature.
Parts stem from different laboratories: compare values within a part only. “And” joins repeats or separate records; there may be more than shown.
UniProt P53779, sequence (whole entry, looked up): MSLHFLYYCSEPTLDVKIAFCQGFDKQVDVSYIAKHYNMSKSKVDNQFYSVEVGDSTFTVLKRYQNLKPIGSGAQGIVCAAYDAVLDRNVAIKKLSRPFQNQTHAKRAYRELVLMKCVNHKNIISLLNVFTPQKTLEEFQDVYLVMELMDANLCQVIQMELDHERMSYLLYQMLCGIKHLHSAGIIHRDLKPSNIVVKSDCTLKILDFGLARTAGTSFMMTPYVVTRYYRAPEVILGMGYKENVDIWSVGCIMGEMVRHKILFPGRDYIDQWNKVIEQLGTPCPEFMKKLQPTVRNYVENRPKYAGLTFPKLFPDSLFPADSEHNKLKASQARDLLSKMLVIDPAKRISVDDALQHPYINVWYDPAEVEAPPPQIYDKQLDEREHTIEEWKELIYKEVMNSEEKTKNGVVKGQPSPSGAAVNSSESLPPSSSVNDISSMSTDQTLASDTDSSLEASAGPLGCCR
UniProt Q9Y4B6, sequence (whole entry, looked up): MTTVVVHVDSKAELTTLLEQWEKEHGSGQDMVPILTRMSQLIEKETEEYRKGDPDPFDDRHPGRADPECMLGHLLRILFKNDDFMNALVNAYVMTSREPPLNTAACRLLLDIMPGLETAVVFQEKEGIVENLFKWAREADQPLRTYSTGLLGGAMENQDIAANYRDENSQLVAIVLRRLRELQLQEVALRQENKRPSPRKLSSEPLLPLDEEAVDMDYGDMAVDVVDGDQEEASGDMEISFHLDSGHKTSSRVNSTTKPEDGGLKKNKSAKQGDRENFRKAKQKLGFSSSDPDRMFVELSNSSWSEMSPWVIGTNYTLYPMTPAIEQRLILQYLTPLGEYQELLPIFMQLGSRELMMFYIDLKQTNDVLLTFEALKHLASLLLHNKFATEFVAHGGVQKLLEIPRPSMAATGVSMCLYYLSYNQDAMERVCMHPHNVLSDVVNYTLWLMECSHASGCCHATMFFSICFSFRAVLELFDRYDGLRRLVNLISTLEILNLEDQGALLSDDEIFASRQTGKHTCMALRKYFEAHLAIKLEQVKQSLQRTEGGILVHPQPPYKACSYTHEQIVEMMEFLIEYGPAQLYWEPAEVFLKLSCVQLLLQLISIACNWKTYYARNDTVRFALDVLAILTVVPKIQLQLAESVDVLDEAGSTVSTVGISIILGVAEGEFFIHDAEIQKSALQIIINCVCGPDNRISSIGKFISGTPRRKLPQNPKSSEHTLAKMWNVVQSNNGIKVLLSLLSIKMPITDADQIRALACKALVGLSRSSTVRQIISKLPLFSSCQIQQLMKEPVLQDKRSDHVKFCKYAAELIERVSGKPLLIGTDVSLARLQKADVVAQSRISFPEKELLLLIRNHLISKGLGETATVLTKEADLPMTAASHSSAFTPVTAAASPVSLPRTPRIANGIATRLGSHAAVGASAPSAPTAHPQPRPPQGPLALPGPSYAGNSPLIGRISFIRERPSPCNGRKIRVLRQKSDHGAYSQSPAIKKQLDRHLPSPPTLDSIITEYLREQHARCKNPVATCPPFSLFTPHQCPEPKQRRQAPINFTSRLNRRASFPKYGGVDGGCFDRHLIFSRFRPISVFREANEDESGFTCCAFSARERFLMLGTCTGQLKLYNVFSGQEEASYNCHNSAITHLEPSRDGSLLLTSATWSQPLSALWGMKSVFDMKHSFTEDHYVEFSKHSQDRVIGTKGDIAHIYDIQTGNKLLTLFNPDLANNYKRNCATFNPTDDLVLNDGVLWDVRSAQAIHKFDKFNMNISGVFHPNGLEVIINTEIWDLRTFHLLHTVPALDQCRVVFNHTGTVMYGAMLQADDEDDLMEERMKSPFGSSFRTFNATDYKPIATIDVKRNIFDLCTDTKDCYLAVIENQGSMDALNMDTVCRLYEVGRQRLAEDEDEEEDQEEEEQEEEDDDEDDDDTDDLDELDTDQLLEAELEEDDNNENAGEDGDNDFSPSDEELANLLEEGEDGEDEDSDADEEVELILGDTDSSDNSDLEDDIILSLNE

Series 1
SMILES: C[C@@H]1CN(c2ccc(-c3cc(C(=O)NCCOCCOCCOCCOCCNC(=O)/C=C/c4[nH]cc(C(=O)N[C@@H](CC(N)=O)c5ccc(F)c(Cl)c5)c4-c4ccc(Cl)cc4F)ccc3F)cc2NC(=O)c2c[nH]c(=O)cc2C(F)(F)F)C[C@H](C)N1C
Effect on: thermal unfolding
Method: differential scanning fluorimetry
Tested at: 5.5 µM
Direction: higher = more unfolded
Measurement: SYPRO Orange fluorescence
WDR5: WD repeat-containing protein 5 (WDR5, Homo sapiens, UniProt P61964)
WDR5; 59.61 °C: 15700 a.u.
DDB1- and CUL4-associated factor 1 (DCAF1, Homo sapiens, UniProt Q9Y4B6); 30 °C: 9500 a.u.
WDR5; 41.2 °C: 14300 a.u.

Other studies, line by line
PKMYT1: Membrane-associated tyrosine- and threonine-specific cdc2-inhibitory kinase (PKMYT1, Homo sapiens, UniProt Q99640)
UniProt Q99640, sequence (whole entry, looked up): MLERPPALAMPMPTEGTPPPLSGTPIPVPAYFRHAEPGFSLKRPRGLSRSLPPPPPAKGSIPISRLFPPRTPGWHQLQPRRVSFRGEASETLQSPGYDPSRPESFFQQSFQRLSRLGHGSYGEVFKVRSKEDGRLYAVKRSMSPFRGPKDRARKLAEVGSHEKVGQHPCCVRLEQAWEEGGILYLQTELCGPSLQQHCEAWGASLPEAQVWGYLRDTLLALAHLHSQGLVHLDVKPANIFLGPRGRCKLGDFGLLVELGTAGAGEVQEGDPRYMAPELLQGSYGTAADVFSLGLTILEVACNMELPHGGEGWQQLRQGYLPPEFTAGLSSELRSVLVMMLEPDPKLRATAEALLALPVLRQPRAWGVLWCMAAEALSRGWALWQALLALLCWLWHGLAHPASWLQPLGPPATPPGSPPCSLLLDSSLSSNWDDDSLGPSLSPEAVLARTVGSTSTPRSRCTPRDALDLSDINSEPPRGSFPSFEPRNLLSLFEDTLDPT
Cc1ccc(O)c(C)c1-c1cnc2[nH]c(-c3cnc(N4CCC5(CC4)CC(N4CCN(c6ccc(N[C@H]7CCC(=O)NC7=O)cc6F)CC4)CO5)nc3)cc2c1C#N (single isomer, unassigned)  EC50 (PKMYT1; target engagement, NanoBRET): 12 nM
CN(C1COC1)C(C)(C)/C=C(\C#N)C(=O)N1CCC[C@H]1Cn1nc(-c2ccc(Oc3ccccc3)cc2F)c2c(N)ncnc21  inhibition (Mitogen-activated protein kinase 10 (MAPK10, Homo sapiens, UniProt P53779); kinase activity; 0.1 µM): 4%
Cc1ccc(O)c(C)c1-c1cnc2[nH]c(-c3cnc(N4CCC(CCN5CCN(c6ccc7c(c6)C(=O)N(C6CCC(=O)NC6=O)C7=O)CC5)CC4)nc3)cc2c1C#N (racemic)  inhibition (PKMYT1; binding, HTRF; 0.46 nM): 4.88% and 3.45%
CCN1/C(=C/C=C2\CCCC(/C=C/C3=[N+](CC)c4ccccc4C3(C)C)=C2NCCCCN2CCC(C(=O)c3ccc(NS(C)(=O)=O)cc3)CC2)C(C)(C)c2ccccc21  fluorescence quantum yield (PBS; 10 µM; reference: Cy5): 1.2
Cc1ccc(O)c(C)c1-c1cnc2[nH]c(-c3cnc(N4CCC(CCN5CCN(c6ccc(NC7CCC(=O)NC7=O)cc6F)CC5)CC4)nc3)cc2c1C#N (stereo not drawn)  IC50 (PKMYT1; cell-free assay, TR-FRET): 3.1 nM
Cc1ncc(-c2cc3c(C(F)(F)F)c(-c4c(C)ccc(O)c4C)cnc3[nH]2)cn1  inhibition (PKMYT1; binding, HTRF; 13.72 nM): 74.2% and 75.2%

Some of these lines once more (series 1):
DDB1- and CUL4-associated factor 1 (DCAF1, Homo sapiens, UniProt Q9Y4B6); 30 °C: 9500 a.u.
WDR5; 41.2 °C: 14300 a.u.
